Literature values that unrelated publications cite.
Compare with care: the assays were run in different laboratories.
UniProt P31645, sequence (whole entry, looked up): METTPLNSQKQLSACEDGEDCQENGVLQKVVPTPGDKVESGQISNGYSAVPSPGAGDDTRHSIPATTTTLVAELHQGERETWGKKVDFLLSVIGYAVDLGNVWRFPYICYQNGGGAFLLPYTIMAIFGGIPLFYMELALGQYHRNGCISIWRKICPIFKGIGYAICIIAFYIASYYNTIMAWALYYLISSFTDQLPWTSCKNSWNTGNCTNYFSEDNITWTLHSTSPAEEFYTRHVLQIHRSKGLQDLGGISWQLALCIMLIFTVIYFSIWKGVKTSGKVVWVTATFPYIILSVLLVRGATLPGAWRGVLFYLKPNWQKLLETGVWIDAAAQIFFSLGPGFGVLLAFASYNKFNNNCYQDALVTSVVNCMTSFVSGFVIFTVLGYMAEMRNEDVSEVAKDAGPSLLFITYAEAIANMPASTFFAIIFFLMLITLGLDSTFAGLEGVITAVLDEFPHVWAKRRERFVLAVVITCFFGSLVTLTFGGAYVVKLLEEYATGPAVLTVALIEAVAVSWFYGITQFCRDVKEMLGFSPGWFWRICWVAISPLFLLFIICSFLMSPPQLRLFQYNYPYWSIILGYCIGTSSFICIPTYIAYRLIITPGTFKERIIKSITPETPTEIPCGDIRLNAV

| SMILES | tested on | test | setting | measurement | result |
| --- | --- | --- | --- | --- | --- |
| COc1cc(-c2cn(C3CCc4c(F)cccc4N(CC(F)(F)F)C3=O)nn2)ccc1-n1cnc(C)c1 (centres unmarked) | SLC6A3 |  |  | IC50 | 0.536 µM |
| CN(C)CCC=C1c2ccccc2COc2ccccc21 | Toxoplasma gondii | parasite growth | concentration not given, drug repurposing screen | activity class | inactive |
| O=S(=O)(NC1CCC(c2cc(F)ccc2F)(S(=O)(=O)c2ccc(Cl)cc2)CC1)C(F)(F)F (centres unmarked) | gamma-secretase human | biochemical potency |  | IC50 | < 0.1 µM |
| N#Cc1ccc2[nH]cc(CCCCN3CCN(c4ccc5oc(C(N)=O)cc5c4)CC3)c2c1 | SLC6A4 (Homo sapiens, UniProt P31645) | serotonin uptake, inhibitor | added: [3H]5-HT | Hill coefficient | 1.82 |
| CC(=O)N1CCC(c2ccc(C(=O)NC(=N)N)cc2C(F)(F)F)CC1 | SLC9A1 | cellular activity |  | IC50 | 0.031 µM |
| CC1=C[C@@]2(C[C@H](C)[C@H]3CC=C(CO)C(=O)[C@@H]3O2)OC1=O | PTP1B | inhibitor |  | IC50 | 59.7 µM |
| CC[C@@H]1C(=O)N(C)c2cnc(Nc3ccc(C(=O)N[C@H]4CC[C@H](N5CCN(CC6CC6)CC5)CC4)cc3OC)nc2N1C(C)C | PLK2 | inhibitor |  | IC50 | 0.005 µM |
| Cc1ccccc1Oc1cc(-n2c(=O)cc(C(F)(F)F)[nH]c2=O)c2ccccc2c1 | BCAT1 | biochemical activity |  | IC50 | 6.5 µM |

Excerpt of the above:
| SMILES | tested on | test | setting | measurement | result |
| --- | --- | --- | --- | --- | --- |
| CC1=C[C@@]2(C[C@H](C)[C@H]3CC=C(CO)C(=O)[C@@H]3O2)OC1=O | PTP1B | inhibitor |  | IC50 | 59.7 µM |
